Measurements collected from several papers.
Protocols differ between the studies behind these lines. ± marks the error that the study gave.
Organism: Salmonella typhimurium

CC(C)N(C)N=O  revertant colonies per plate (mutagenicity, Ames plate incorporation; TA98; 2500 µg/plate, 3 d, without S9, methanol): 22.7 ± 2
Cc1cc(C(=O)NC(C)(C)COc2cccc3c2C(N)=NS(=O)(=O)N3)cc(C)n1  revertant ratio (Ames test, confirmatory; TA98; 1000 µg/plate, with: rat liver S9; reference: solvent control): 1
O=[N+]([O-])c1ccc(N2CCC(NCCC(O)c3ccc(F)c4ccccc34)CC2)c(C(F)(F)F)c1 (stereo not drawn)  induction factor (genotoxicity, SOS/umu test; TA1535/pSK1002; 0.001 mg/mL, 4 h, with S9, lower range): 1.1
COc1cccc(-c2n[nH]c(SCc3ccccn3)n2)c1OC  revertant colonies per plate (Ames test, preincubation; TA1537; 0.50 mg/plate, with rat liver S9): 10
CN(CC(C)(C)C)N=O  revertant colonies per plate (mutagenicity, Ames plate incorporation; TA98; 500 µg/plate, without S9, methanol): 26 ± 11
O=[N+]([O-])c1ccc(N2CCN(CCC(O)c3ccc(F)cc3)CC2)c(C(F)(F)F)c1 (stereo not drawn)  induction factor (genotoxicity, SOS/umu test; TA1535/pSK1002; 0.008 mg/mL, 4 h, without S9, full range): 1.3
CC(=O)N1CCC(C(=O)N2CCN3C(=O)c4cc(-c5ccccc5)ccc4NC(=O)C3C2)CC1 (stereo not drawn)  fold increase in revertants (TA1537; 1.58 µg/plate, with: rat liver S9; reference: vehicle): 2.3
O=NN1CCN(C2CCCC2)CC1  revertant colonies per plate (mutagenicity, Ames plate incorporation; TA1537; 1500 µg/plate, 3 d, without S9, methanol): 12 ± 3
Fc1ccc(C2=CCNCC2)cc1  induction factor (genotoxicity, SOS/umu test; TA1535/pSK1002; 0.063 mg/mL, 4 h, with S9, full range): 0.9

A few entries again:
CC(C)N(C)N=O  revertant colonies per plate (mutagenicity, Ames plate incorporation; TA98; 2500 µg/plate, 3 d, without S9, methanol): 22.7 ± 2
